Results from different studies.
Numbered parts are unrelated; each lists some results of a single study. Substitutions count along the parent as printed.

Set 1
Target: CCNB1, cyclin fold, Cln2 fusion (human)
Technique: yeast growth competition, sequencing
Medium: yeast
Setting: weak parent motif
Baseline: not given
Direction: higher = stronger binding
Parent: REV3L docking peptide (human); PPVIIKYIIINRF
Change	normalised enrichment score
P1A	0.415
I8A	0.166
I4A	-0.125
I9A	-0.073
R12A	0.539
F13A	0.839

Set 2
Target: RNA binding protein fox-1 homolog 2, RRM domain, GST-SBP tag (RBFOX2, Homo sapiens, UniProt O43251-10, residues 100-194)
Technique: RNA Bind-n-Seq
Molecule type: RNA
Medium: in vitro
Concentration: 365 nM
Setting: natural RNA segment, single round, ends assumed
Baseline: no-protein control
Direction: higher = stronger binding
Constant ends, left off below: GGGAGUUCUACAGUCCGACGAUC … UGGAAUUCUCGGGUGCCAA
Residues (chain): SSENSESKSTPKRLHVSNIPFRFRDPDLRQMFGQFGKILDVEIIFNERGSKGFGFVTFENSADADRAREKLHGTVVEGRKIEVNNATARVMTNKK
Sequence	RBNS enrichment (R)
UCUAGAAUGACUUGGUGUCCUGAUGCACUUCUCACCAGAGGCUGCCUAGCAGCAUGUGUUAGCCAAAGUCUUCCUCCUUGUUUUGAGAAGACUCCAGGACAGGACAGGCA	1.32
AGAAGUUAAAUUUGAAAGUGAAUGUGUUCAAAUGAAAGGCUUGACAAUUGCAUCUGUUACUAGUUUUGUAGGCUUUAAUCCUAGUGUGCGUUAAAUAUUGGGCAAAUUGC	9.99
AGUUUGGCUAGAUCUUAAAGCUGUUUUGGUAAUUAAUGUCUUGUGACAUUUAAUAAUGACUUAGCAAGCAUUGGAUUUUUUUUUUUUGUUGUUCUUGUUAGCUAAAGCAC	1.3
GCGUAACUAUUUUUGACCUAGUCAGUUUUUAAACAAUGUGCAUUUGAAGGAGUUAAUUAAAAGAGAGCCAAUAAAAUGAUUUUACUCAUUCAGUAUCUGAGUACUGGAAG	0.601
CAGAGCUGGGCGUCACUUCGCAAGCGUCCUGCCCUGCCGGGGCGCGGGGGUGGGCUCUGGGGAAGCCGGUGCGCCCCCCACGCCUCCGCUGCCAGUGCCUUACAUUCUGG	0.259
GGCAGCAAGAACGAAGCAGGAUGUUGUCACUCCCGUCUGAAUAAAGCUCCAUGAGCUGGGUUGGAAAGCUGAACAUUUAUCUUGCUUUCUUCUUCCCACCUCUUUCCCUG	1.71
CUCAGCAUAUCAAGUUUAGGCAGCAAGGGAAAGGAAUAUGGGUCAGUUCUCAAAUGUCAAUGUAGAUAAGAGUCAUCUAGUAGAGAACUCAUCAGAGUGCGGAUUGCCAA	1.02
AUUUAAAAGGUCAGGGUGUUAUUUUCUUCUAUAAUAAAACAGCUCACUUGUGUUGUGCUCCAGAGUGUUUGUCUGACCGAGCAUCAUCACACAAACACUUGAGUCUGAUU	0.364
CUAAGGCAGCCUUCAGUCCCUAUCAGCGCCUCCUUUACUUCCCAGAGAACUUCACAGAGACUCUGUCCUUCCAUGCAAAGGCUUCCUGAAAUAGGGAGACUGACUGAGUA	0.272
CCCUUGCCUUAGGAUCCUGGUGCAGGUCCUAGUUGUUAUCUGCUCAGCCGGAGUUGAGAAGGAGUAACAGGUCUGAGGCUGUCCCGGAGAACCACCCAUCCCAGCUCAGC	0.259
GGCGCGGUGGCUCACGCCUGUAAUCCCAGCACUUUGGGAGGCCAAGGUGGGCGGAUCACAAGGUCAGGAGUUCGAGACCAACCUAGCCAACAUGGUGAAACCCCGUCUCU	0.208
AGCCCCUGGUGUCUGCAGUGGGGGAUUUAAGGCACCCGCUUCCACUUCUUUCUUGUUUGGAGUUUUCUGUUGGAACCGCCGGCGUUGGCUCCGAAGACUUAGCGACGCCA	0.737

Set 3
Target: FOSL1, bZIP domain (human)
Technique: DHFR protein complementation
Medium: yeast
Setting: single substitutions, most at no-binding floor
Baseline: wild-type JUN-FOS pair
Direction: higher = stronger binding
Parent: JUN, bZIP domain (human); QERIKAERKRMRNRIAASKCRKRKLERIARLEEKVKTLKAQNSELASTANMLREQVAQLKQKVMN; partner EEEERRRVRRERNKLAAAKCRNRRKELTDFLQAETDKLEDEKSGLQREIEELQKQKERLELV
Change	binding fitness [natural log]
M51T	-0.295
E54T	-0.558
E33L	-0.51
A57L	-0.715
I28F	-0.682
K39H	-0.771
L38K	-1.42
A46Q	-0.387
A49R	-0.146
L31Y	-0.887
L45F	-1.14
Q41I	-0.412
N42Q	-1.22
V56W	-1.41
T48W	-0.673
A57W	-0.685
V35H	-1.1

Set 4
Target: UBE2L3 UBC core domain (UniProt P68036)
UniProt P68036, sequence (whole entry, looked up): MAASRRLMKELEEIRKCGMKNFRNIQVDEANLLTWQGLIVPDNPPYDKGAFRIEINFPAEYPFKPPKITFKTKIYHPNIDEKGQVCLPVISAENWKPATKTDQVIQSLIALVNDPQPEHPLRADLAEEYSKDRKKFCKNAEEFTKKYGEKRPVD
Technique: yeast two-hybrid
Medium: yeast
Setting: mostly zero background
Baseline: not given
Direction: higher = stronger interaction
B1: SH3RF1 RING domain (UniProt Q7Z6J0); chain DESALLDLLECPVCLERLDASAKVLPCQHTFCKRCLLGIVGSRNELRCPECRTLVGSGVEEL
B2: DZIP3 RING domain (UniProt Q86Y13); chain PDEEEEEEEPCVICHENLSPENLSVLPCAHKFHAQCIRPWLMQQGTCPTCRLHVLLPEEFP
B3: RNF19A RING domain (UniProt Q9NV58); chain ISKQIGDFIECPLCLLRHSKDRFPDIMTCHHRSCVDCLRQYLRIEISESRVNISCPECTERFNPHDIR
B4: TRIM62 RING domain (UniProt Q9BVG3); chain MACSLKDELLCSICLSIYQDPVSLGCEHYFCRRCITEHWVRQEAQGARDCPECRRTFAEPALAP
B5: RFWD3 RING domain (UniProt Q6PCD5); chain ASMDEEEGDTCTICLEQWTNAGDHRLSALRCGHLFGYRCISTWLKGQVRKCPQCNKKARHSDIVV
B6: UBOX5 RING domain (UniProt O94941); chain EQPGSILGPECASCKRVFSPYFKKEPVYQLPCGHLLCRPCLGEKQRSLPMTCTACQRPVASQDVLR
B7: RBCK1 RING domain (UniProt Q9BYM8); chain SLVLNTEPAECPVCYSVLAPGEAVVLRECLHTFCRECLQGTIRNSQEAEVSCPFIDNTYSCSGKLLEREIK
B8: ZMIZ2 RING domain (UniProt Q8NF64); chain GTIPGTPGPNGEDGVEQTAIKVSLKCPITFRRIQLPARGHDCRHIQCFDLESYLQLNCERGTWRCPVCNKTALLEGLEVDQYMLGILIYIQNSDYEEITIDPTCSWK
B9: MAP3K1 RING domain (UniProt Q13233); chain NSIKDEEEQMCPICLLGMLDEESLTVCEDGCRNKLHHHCMSIWAEECRRNREPLICPLCRSKWRSHDFYS
Sequence	lacZ reporter activity
B1 (SH3RF1 RING domain)	0
B2 (DZIP3 RING domain)	0
B3 (RNF19A RING domain)	0
B4 (TRIM62 RING domain)	0
B5 (RFWD3 RING domain)	0
B6 (UBOX5 RING domain)	0
FDGDVDPDLKCALCHKVLEDPLTTPCGHVFCAGCVLPWVVQEGSCPARCRGRLSAKELN (PDZRN3 RING domain (UniProt Q9UPQ7))	0
KLRKLKEAMLCMVCCEEEINSTFCPCGHTVCCESCAAQLQSCPVCRSRVEHVQHVY (MYLIP RING domain (UniProt Q8WY64))	0
B7 (RBCK1 RING domain)	0
B8 (ZMIZ2 RING domain)	0
B9 (MAP3K1 RING domain)	0

Set 5
Target: RING finger protein unkempt homolog, zinc fingers 1-6, SBP tag (UNK, Homo sapiens, UniProt Q9C0B0, residues 30-357)
UniProt Q9C0B0, sequence (30-357, looked up): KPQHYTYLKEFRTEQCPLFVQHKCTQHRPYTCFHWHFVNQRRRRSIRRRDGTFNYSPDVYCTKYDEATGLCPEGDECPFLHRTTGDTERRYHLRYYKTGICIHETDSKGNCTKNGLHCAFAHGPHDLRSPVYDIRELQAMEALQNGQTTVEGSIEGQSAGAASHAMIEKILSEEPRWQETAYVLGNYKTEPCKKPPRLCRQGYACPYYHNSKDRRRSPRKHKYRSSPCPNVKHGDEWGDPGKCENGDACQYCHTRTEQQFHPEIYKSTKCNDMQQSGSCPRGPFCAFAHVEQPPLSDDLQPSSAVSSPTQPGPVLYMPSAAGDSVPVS
Technique: RNA Bind-n-Seq
Molecule type: RNA
Medium: in vitro
Concentration: 100 nM
Setting: RNA with constant flanks, vertebrate orthologous sites, ends assumed
Baseline: input RNA pool
Direction: higher = stronger binding
Constant ends, left off below: GGGAGUUCUACAGUCCGACGAUC … CAACAGAGGAUUGAGCAUCA
Sequence	bound/input enrichment
GCCACUGUAAUCUCCAUUUAUUUUUAUUUACCUAACUUUAUUAGAUUAUUCACUCCAGAAUGCCAUUUUUUGAUGGAACUGCUAUUUGACAGUUCUUAACUAAUUCCUCAUAAAGAAAUU	4.84 ratio
CCGGGUCCUCCCGCACCGACCCCAGGCUCAGGGACCAGGUGUUGCAUUGAGGACCUGCCUUUCAAACACUUUUUUAAAUUGUCCAGCAAGAGAUGUGACCAAAACAGCAUCUCAAAGUCG	0.304 ratio
GAGCUAAAGGAGUUAGCAUCUUUAUUUUUGUAUCAAAGAUAAAGGUUAUUUUGAAAUUAUUAGGAUUUUUACACAACUCUGAAAUCUGUUUGCUUUUGUAAACUAAUUGUUUGACCUAGG	0.93 ratio
AUCUCAUGUAGUUUUUAAUUUCAAGCAAAUCUUAUUGUACUUGAAUGUGUCCUGUUUUGUUAGCACACCUAGACUUGCUGUAACUGUACUCAUGUCCCAGUAUGUACGUUCUUUCUAUGA	1.05 ratio
CAGCGCCAUGGUCGAUGGCACAGAGCUCAAGAAAGUGAGAUCCAAUUCACGCAUUUAUCACCGCUACUUUCUCCUUGACGCCGACAUGCAGUCCUUGAGAUGGGAGCCCACCAAGAAGGA	0.174 ratio
UUGUACUUGGAAAAAGUCAUCUUUAGUUUUAAACUAGUCACGGUGAUACCUAGUCUGUGCUAGUGGAAUCAUUUACUCUUACCUUUUAAACUAUCUCCUCUGUCUGAUACCUGAAACCAG	0.618 ratio
AUGUUAAUUAGAGGUAGUAUAUGUUUCAUAAUGAAGAGUCUUUAAAUUUUGUUUGUCAUAUAGUAUUUUGGGAUUUAUAUAAUGAGGAUGAUUAGAAGCCACAUAAAUGGCUUUUUUAAC	0.361 ratio
CAGCCGAUUCACUUAUUGGGAGAGCUGCACAUAUUGCUGUUCUUGAUUCAGAAAUAUUUUUAGAAAAAUUCUUUCUGGUGGCUGCUCUAAAAUAUUUCCAGUAGCCAAAAAGCAUUGUUA	0.625 ratio
CUACUAUAAACAACUCAGGGCAGUAUUCUCGAUAUCCUUACAGUAACCUAAAUCAGGGAUUAGUUAACAAUACAGGGAUGAAUCAAAAUUUAGGCCUUACAAACAAUACUCCAAUGAAUC	1.3 ratio
CGGAGCAGUUGCCCAGUUCUGAGCACUCGCUACAGGGGUACUUUGGCCCAAGCGAUGAAGCAGAUGUGUCUUACCAGCAAGAUAAUAACAGCCCAGUGUCCAGCAGCCCCUCCACAACUG	0.256 ratio
GUAAUGUGUUUUUAUUUAUUGAAAAUUGUUUGUGCUAAGGAUUGUGUUAGAUUUACAAAUUAGUGGAUUGAUUCCUCUUUGUUGUGUUGCUUUCAUUGUUGAAAAUAAAUAGAACUUUGA	1.4 ratio

For quick reference, copied from above (set 1):
Change	normalised enrichment score
I4A	-0.125
I9A	-0.073
R12A	0.539
F13A	0.839
P1A	0.415
I8A	0.166
